Measurements gathered from unrelated publications.
Each numbered part is a random draw from the data of one study; scales do not carry over between parts.
Sequence of UniProt Q14164 (whole entry, looked up): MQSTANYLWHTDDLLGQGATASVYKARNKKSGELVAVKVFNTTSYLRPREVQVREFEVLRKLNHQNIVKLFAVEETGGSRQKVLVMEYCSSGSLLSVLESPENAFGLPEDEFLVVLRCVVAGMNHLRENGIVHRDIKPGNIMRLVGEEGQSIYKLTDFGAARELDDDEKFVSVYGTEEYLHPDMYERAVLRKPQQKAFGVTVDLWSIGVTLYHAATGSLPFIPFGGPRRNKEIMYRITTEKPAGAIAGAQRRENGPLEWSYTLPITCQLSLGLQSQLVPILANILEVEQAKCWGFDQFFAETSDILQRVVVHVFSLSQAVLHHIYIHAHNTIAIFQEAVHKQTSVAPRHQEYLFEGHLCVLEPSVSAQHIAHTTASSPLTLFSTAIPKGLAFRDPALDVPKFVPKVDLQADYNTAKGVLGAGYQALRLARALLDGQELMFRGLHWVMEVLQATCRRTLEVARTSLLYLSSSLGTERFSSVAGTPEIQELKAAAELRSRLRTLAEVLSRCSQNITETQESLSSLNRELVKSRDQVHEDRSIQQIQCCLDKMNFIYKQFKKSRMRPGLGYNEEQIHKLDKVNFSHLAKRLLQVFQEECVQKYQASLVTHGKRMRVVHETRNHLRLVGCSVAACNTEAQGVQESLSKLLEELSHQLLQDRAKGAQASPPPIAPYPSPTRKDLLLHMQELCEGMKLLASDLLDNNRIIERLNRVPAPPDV
Sequence of UniProt P21709 (whole entry, looked up): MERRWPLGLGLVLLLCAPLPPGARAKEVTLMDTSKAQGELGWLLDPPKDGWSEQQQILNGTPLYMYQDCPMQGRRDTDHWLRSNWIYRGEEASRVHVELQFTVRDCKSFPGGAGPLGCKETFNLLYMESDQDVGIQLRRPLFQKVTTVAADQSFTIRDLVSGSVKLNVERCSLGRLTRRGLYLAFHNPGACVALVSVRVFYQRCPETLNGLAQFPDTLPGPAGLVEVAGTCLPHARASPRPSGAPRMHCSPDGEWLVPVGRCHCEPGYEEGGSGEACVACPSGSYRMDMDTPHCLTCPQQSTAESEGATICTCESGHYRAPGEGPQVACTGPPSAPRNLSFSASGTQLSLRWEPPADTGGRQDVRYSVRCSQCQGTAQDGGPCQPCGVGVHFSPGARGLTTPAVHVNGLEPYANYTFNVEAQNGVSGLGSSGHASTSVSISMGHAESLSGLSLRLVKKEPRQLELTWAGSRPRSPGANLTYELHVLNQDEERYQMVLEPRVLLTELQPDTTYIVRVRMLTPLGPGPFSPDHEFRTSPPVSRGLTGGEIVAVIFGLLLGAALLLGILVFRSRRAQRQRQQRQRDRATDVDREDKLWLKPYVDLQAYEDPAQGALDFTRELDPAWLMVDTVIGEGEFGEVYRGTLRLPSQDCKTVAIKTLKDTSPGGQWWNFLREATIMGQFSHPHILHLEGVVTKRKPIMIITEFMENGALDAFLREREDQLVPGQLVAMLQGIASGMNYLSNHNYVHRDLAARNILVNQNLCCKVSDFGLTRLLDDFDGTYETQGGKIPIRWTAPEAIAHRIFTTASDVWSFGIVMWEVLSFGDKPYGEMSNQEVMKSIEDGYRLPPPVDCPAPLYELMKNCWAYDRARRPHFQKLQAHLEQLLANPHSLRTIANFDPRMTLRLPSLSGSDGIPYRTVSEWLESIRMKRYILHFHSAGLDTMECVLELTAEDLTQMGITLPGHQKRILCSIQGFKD
Sequence of UniProt Q8N568 (whole entry, looked up): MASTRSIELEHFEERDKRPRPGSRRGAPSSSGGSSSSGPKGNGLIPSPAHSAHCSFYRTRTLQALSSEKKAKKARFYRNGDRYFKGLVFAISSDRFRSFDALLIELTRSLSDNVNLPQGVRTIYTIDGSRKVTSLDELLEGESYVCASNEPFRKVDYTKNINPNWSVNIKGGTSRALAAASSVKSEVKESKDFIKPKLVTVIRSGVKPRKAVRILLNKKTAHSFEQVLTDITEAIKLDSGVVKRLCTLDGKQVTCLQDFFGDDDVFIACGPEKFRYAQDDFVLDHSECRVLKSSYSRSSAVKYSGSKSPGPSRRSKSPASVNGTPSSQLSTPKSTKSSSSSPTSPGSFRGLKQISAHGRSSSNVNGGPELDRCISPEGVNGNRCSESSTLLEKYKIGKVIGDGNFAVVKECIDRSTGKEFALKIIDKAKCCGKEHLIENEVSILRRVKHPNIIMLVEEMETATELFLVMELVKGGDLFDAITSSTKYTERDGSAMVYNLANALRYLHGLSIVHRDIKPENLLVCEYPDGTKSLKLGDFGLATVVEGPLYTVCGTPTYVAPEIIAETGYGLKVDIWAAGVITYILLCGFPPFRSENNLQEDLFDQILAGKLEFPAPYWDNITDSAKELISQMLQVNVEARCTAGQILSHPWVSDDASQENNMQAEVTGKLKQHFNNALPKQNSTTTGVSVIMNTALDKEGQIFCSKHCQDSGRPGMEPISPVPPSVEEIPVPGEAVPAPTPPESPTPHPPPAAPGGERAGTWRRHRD
Sequence of UniProt Q9UQB9 (whole entry, looked up): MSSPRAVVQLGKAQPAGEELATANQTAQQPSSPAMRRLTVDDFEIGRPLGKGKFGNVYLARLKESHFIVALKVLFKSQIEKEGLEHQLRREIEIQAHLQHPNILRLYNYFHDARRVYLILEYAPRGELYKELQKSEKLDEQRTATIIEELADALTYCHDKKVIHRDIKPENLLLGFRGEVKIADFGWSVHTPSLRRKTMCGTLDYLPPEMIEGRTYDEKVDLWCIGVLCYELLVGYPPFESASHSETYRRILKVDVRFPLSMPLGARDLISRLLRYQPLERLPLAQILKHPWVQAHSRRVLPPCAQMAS
Sequence of UniProt Q8N5S9 (whole entry, looked up): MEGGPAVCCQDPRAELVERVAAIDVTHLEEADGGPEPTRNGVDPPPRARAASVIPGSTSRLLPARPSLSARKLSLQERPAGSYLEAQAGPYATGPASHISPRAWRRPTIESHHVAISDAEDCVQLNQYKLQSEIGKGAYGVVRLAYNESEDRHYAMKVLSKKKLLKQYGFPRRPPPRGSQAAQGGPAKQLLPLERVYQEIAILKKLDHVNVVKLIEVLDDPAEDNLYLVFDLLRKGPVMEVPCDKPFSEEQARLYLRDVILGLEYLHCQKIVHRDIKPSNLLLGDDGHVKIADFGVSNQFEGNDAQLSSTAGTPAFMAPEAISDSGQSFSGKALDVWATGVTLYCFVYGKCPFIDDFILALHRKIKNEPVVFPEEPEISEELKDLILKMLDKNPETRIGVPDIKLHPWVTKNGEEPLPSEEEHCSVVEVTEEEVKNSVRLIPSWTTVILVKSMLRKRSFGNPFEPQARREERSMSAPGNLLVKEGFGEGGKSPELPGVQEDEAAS
Sequence of UniProt Q8IW41 (whole entry, looked up): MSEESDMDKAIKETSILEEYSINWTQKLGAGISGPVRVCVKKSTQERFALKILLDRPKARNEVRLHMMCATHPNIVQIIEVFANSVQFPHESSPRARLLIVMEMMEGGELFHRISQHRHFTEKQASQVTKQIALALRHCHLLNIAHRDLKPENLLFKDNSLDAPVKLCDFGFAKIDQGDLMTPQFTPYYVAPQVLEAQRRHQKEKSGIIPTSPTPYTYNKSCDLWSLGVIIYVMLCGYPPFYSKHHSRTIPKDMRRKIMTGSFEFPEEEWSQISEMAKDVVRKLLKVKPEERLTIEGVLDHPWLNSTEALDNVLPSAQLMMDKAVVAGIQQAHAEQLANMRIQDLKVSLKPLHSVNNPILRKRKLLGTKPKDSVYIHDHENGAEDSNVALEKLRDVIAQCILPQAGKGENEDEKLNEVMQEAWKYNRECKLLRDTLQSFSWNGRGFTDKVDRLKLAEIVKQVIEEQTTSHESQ

Series 1
SMILES: Cc1cc(NC(=O)c2cccc(S(F)(F)(F)(F)F)c2)cc(-n2ccn3nc(-c4cccnc4)cc23)c1
Tested at: 1 µM
It gave 72.8% for remaining binding (Dual serine/threonine and tyrosine protein kinase (DSTYK, Homo sapiens, UniProt Q6XUX3); cell-free assay, competition with immobilised ligand).
It gave 100% for remaining binding (Receptor-type tyrosine-protein kinase FLT3 (FLT3, Homo sapiens, UniProt P36888, D835V); cell-free assay, competition with immobilised ligand).
The remaining binding was 64.2% (Serine/threonine-protein kinase ICK (CILK1, Homo sapiens, UniProt Q9UPZ9); cell-free assay, competition with immobilised ligand).
For Serine/threonine-protein kinase VRK2 (VRK2, Homo sapiens, UniProt Q86Y07); cell-free assay, competition with immobilised ligand: remaining binding read 100%.
It gave 100% for remaining binding (Inhibitor of nuclear factor kappa-B kinase subunit epsilon (IKBKE, Homo sapiens, UniProt Q14164); cell-free assay, competition with immobilised ligand).
It gave 59.9% for remaining binding (Cyclin-dependent kinase 15 (CDK15, Homo sapiens, UniProt Q96Q40); cell-free assay, competition with immobilised ligand).
Receptor-type tyrosine-protein kinase FLT3 (FLT3, Homo sapiens, UniProt P36888, ITD); cell-free assay, competition with immobilised ligand — remaining binding: 95.8%.
For Epidermal growth factor receptor (EGFR, Homo sapiens, UniProt P00533, A750P/del747-749); cell-free assay, competition with immobilised ligand: remaining binding read 98.7%.
It gave 98.1% for remaining binding (Receptor tyrosine-protein kinase erbB-4 (ERBB4, Homo sapiens, UniProt Q15303); cell-free assay, competition with immobilised ligand).
The remaining binding was 100% (Serine/threonine-protein kinase SIK1 (SIK1, Homo sapiens, UniProt P57059); competition binding).
Tyrosine-protein kinase Lyn (LYN, Homo sapiens, UniProt P07948); cell-free assay, competition with immobilised ligand — remaining binding: 100%.
The remaining binding was 100% (Phosphatidylinositol 5-phosphate 4-kinase type-2 beta (PIP4K2B, Homo sapiens, UniProt P78356); cell-free assay, competition with immobilised ligand).
The remaining binding was 34.1% (Receptor-interacting serine/threonine-protein kinase 4 (RIPK4, Homo sapiens, UniProt P57078); cell-free assay, competition with immobilised ligand).
The remaining binding was 100% (Receptor-type tyrosine-protein kinase FLT3 (FLT3, Homo sapiens, UniProt P36888, K663Q); cell-free assay, competition with immobilised ligand).
It gave 80.5% for remaining binding (Calcium/calmodulin-dependent protein kinase type IV (CAMK4, Homo sapiens, UniProt Q16566); cell-free assay, competition with immobilised ligand).
It gave 100% for remaining binding (Ephrin type-A receptor 1 (EPHA1, Homo sapiens, UniProt P21709); cell-free assay, competition with immobilised ligand).
It gave 100% for remaining binding (Epidermal growth factor receptor (EGFR, Homo sapiens, UniProt P00533, del747-752/P753S); cell-free assay, competition with immobilised ligand).
Tyrosine-protein kinase Fer (FER, Homo sapiens, UniProt P16591); cell-free assay, competition with immobilised ligand — remaining binding: 59.4%.

Series 2
Structure (SMILES): O=C(Nc1cnn(-c2csc(C(=O)NC3COC3)c2)c1)Nc1ccccc1Cl
Read-out: enzyme activity
Tested at: 5 µM
Relative to: untreated control
The remaining activity was 108% (Inhibitor of nuclear factor kappa-B kinase subunit epsilon (IKBKE, Homo sapiens, UniProt Q14164)).
The remaining activity was 91% (MAP kinase-activated protein kinase 5 (MAPKAPK5, Homo sapiens, UniProt Q8IW41)).
The remaining activity was 99.2% (Tyrosine-protein kinase Srms (SRMS, Homo sapiens, UniProt Q9H3Y6)).
It gave 126% for remaining activity (Myosin-IIIb (MYO3B, Homo sapiens, UniProt Q8WXR4)).
The remaining activity was 117% (Dual specificity protein kinase CLK3 (CLK3, Homo sapiens, UniProt P49761)).
The remaining activity was 98% (Ephrin type-A receptor 1 (EPHA1, Homo sapiens, UniProt P21709)).
The remaining activity was 129% (Calcium/calmodulin-dependent protein kinase kinase 1 (CAMKK1, Homo sapiens, UniProt Q8N5S9)).
The remaining activity was 84.5% (Serine/threonine-protein kinase BRSK1 (BRSK1, Homo sapiens, UniProt Q8TDC3)).
It gave 91.4% for remaining activity (Ribosomal protein S6 kinase alpha-1 (RPS6KA1, Homo sapiens, UniProt Q15418)).
The remaining activity was 100% (Aurora kinase C (AURKC, Homo sapiens, UniProt Q9UQB9)).
It gave 97.5% for remaining activity (Serine/threonine-protein kinase DCLK2 (DCLK2, Homo sapiens, UniProt Q8N568)).
For Tyrosine-protein kinase Lck (LCK, Homo sapiens, UniProt P06239): remaining activity read 91.3%.

Series 3
Target: Beta-1 adrenergic receptor (ADRB1, Homo sapiens, UniProt P08588)
Sequence of UniProt P08588 (whole entry, looked up): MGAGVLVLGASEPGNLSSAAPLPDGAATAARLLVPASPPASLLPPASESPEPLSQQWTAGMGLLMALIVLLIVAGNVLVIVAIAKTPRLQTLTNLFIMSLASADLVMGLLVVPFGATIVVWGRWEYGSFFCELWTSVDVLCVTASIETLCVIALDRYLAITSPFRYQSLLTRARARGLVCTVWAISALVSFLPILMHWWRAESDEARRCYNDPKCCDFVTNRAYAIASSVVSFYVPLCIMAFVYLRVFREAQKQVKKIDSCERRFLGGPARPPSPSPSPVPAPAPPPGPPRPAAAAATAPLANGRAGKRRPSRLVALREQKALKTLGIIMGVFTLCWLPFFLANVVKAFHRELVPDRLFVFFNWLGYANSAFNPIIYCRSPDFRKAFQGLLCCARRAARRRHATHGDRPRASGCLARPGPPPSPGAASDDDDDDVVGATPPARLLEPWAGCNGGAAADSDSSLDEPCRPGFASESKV
Action: antagonist
For `CC(C)c1ccc(C(=O)N2CC(CNC(=O)C3CCOCC3)C3(C2)CN(c2ccccc2)C3)cc1` (centres unmarked), the IC50 was ≥ 100 µM.
The IC50 of `COc1ccccc1N1CCN(c2nc3c(C)cccn3c(=O)c2C=O)CC1` is reported as ≥ 100 µM.
The IC50 of `O=C1c2cnc(-c3cn[nH]c3)nc2OCCN1Cc1ccc(F)cc1F` is reported as ≥ 100 µM.
`O=c1c2cc(-c3ccc(F)cc3)nn2ccn1CC(O)c1ccc2c(c1)OCO2` (centres unmarked) has an IC50 of ≥ 100 µM.
`c1cnc2c(CN3CCN(c4ccc5nccnc5n4)CC3)cccc2c1` has an IC50 of ≥ 100 µM.
The IC50 of `OC1(c2nc(Nc3cccc(F)c3)n[nH]2)CCOCC1` is reported as ≥ 100 µM.
`COc1ccccc1N1CCN(C(C)C(N)=O)CC1` (centres unmarked) has an IC50 of ≥ 100 µM.
With `O=C(c1cc2ccccc2o1)N1CCN(c2cccc(Cl)c2)CC1` the IC50 was ≥ 100 µM.
With `Cc1cc(C)n(-c2ccc(=O)n(C3CCN(c4nc5ccccc5cc4C#N)CC3)n2)n1` the IC50 was ≥ 100 µM.
`CN(C)CC(O)COc1ccc(CN2CCC(N3CCOC3=O)CC2)cc1` (centres unmarked) gave an IC50 of ≥ 100 µM.
For `N#Cc1ccc(OCC(O)CN2CCN(c3ncnc4ccsc34)CC2)cc1` (centres unmarked), the IC50 was ≥ 100 µM.
`Cc1c(-c2ccnc(Nc3cc(Br)cc(C(F)(F)F)c3)n2)sc(=O)n1C` has an IC50 of ≥ 100 µM.
The IC50 of `Cc1ccc2c(CSc3nnnn3Cc3ccco3)cc(=O)oc2c1` is reported as ≥ 100 µM.
The IC50 of `COc1cccc(NC(=O)c2sc3nc(C)c(C(=O)Nc4ccc(C)cc4C)c(-c4ccc(C)o4)c3c2N)c1` is reported as ≥ 100 µM.

Series 4
Target: Calcium/calmodulin-dependent protein kinase type II subunit alpha (CAMK2A, Homo sapiens, UniProt Q9UQM7)
Sequence of UniProt Q9UQM7 (whole entry, looked up): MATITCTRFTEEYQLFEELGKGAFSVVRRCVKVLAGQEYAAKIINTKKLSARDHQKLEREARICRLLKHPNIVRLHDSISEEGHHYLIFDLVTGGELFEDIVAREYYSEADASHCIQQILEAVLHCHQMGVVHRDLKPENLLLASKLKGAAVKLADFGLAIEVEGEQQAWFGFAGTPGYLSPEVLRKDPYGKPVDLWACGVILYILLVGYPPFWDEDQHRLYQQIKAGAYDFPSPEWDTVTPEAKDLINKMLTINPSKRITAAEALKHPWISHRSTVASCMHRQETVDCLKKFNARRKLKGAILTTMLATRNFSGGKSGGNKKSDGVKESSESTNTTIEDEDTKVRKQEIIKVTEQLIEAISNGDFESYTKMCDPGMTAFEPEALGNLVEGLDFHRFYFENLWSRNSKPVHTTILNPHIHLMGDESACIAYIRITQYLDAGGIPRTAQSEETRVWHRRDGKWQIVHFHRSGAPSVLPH
Read-out: enzyme activity
Action: inhibitor
Tested at: 10 µM
With `COc1ccc(-c2oc3cc(O)cc(O)c3c(=O)c2O)cc1` the inhibition was 35%.
`COc1cnc(NS(=O)(=O)c2ccc(N)cc2)nc1` gave an inhibition of -10%.
`COc1c(C)c2c(c(O)c1C/C=C(\C)CCC(=O)O)C(=O)OC2` gave an inhibition of 21%.
For `Nc1cccc2c1C(=O)N(C1CCC(=O)NC1=O)C2=O` (centres unmarked), the inhibition was -3%.
The inhibition of `C[C@]12CCC(=O)C=C1[C@@H]1C[C@@H]1[C@H]1[C@@H]3[C@@H]4C[C@@H]4[C@@]4(CCC(=O)O4)[C@@]3(C)CC[C@@H]12` is reported as 3%.
For `CNC[C@@H]1CC[C@@H](N)[C@@H](O[C@H]2[C@H](O)[C@@H](O[C@H]3OC[C@](C)(O)[C@H](NC)[C@H]3O)[C@H](N)C[C@@H]2N)O1`, the inhibition was -8%.
With `CC1(C)CCC2(CO)C(=C3C=CC4C5(C)CCC(OC6OC(COC7OC(CO)C(O)C(O)C7O)C(OC7OC(CO)C(O)C(O)C7O)C(O)C6O)CC5C(C)(CO)CC4(C)C3(C)CC2O)C1` (centres unmarked) the inhibition was -26%.
The inhibition of `Cc1cccc2c3c(ccc12)C(O)=C(C(C)CO)C(=O)C3=O` (centres unmarked) is reported as -64%.
`O=C(O)CNC(=O)[C@@H]1CCCN1` has an inhibition of 2%.
